Results of several laboratories.
A part holds a random share of what one study measured.

Block 1 — technique: RNA Bind-n-Seq; form: RNA; matrix: in vitro; tested at: not given; reference: input RNA pool; direction: higher = stronger binding
Target: RING finger protein unkempt homolog, zinc fingers 1-6, GST-SBP tag (UNK, Homo sapiens, UniProt Q9C0B0, residues 30-357)
Setting: RNA with constant flanks, human and mouse sites, ends assumed
Shared flanks, not repeated: GGGAGUUCUACAGUCCGACGAUC … CAACAGAGGAUUGAGCAUCA
Residues (chain): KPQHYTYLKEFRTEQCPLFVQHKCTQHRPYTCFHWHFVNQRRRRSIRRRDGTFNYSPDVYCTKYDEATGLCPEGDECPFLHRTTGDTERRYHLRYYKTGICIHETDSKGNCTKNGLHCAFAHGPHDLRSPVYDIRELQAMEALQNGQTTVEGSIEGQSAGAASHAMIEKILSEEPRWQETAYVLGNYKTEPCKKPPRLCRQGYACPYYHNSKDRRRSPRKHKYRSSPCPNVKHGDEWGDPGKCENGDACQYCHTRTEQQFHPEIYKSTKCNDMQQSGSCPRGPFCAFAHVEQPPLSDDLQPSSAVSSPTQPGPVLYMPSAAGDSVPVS
Strand | bound/input enrichment [ratio]
ACUUUUGGAUAAUAUCCACUGCAAUACUAAUUGAGAAACAUGAAUUAUUUCCAGGGGCACACAAUGCUAUUGAAAUUACUGAAAACAAAAUAUCUGACAUCUUAUUUACUUGUAGAAAUC | 0.271
CGCCUGGAUGAGGCUGGUGUUACUGAUGAAGUGCUGGAUUCUGCCAUGCAAGCCUUCUUACUAGAAAUUAUCGUUAAGCAUGGGGAGCCAGCCCCUUAUUUAUGUAAUAAAGAUCCUUUU | 0.359
UCUUCCGCCCCGGCCCGGAAGGGUGAUGUGGCUGGACCAGCACCGGCCUCACUAUGUCUGCCAUUUUCAAUUUUCAGAGUCUGUUGACUGUAAUCUUGCUGCUUAUAUGUACAUGUGCUU | 0.388
GCUGGAGAGGAAAACUGAAAGAGGCUCUUAAAAAAAACUGUGAAGCUUACUACCUUUCUAUCUUUCAGGCCUUGGAUGACACCGAAAGGGGUUCAGGAGGUUUUGGUUCCACUGGAAAGA | 0.0914
GAGACAGAUGAUUCAGUUGAGGGUCGUGGGGUAUCUCAGCCAUCUCAGAAGACCCCCUCUGAAGAGGACUUUGAAACCAUUAAGCUCAUCAGCAAUGGCGCCUAUGGGGCUGUCUUUCUG | 0.077
UCACCUCAGAACUAUUCCCUAUCAAUCUAAUGCAAACUGUCAACUUAAUCUGACCUUUACUAUUACAGACCUUGUGUCAACUCUUUGGCUCUGCUUUCUAAGCACCUAAGGAAUAAGCUU | 0.142
GCUCAAAAAGUGUUUUUCAGACCUCGGUAUUCCUAAUGUGGGAUGUGACUUUAUUUUAUUUUUAGUAGCAAAUUUGGAUGUAGACUGACAGACAUAGCUGAAUGUCUUAAUAAAUUUAAA | 8.65
GCCAUCGCUCUUAUGGGCUACAGGUUGAGUCCACAGACAUUAGCUGCAAUUGUCAGACGCUACAGCAAGAAUGGCCGGAUUUUCUUUGAUGACUAUGUUGCCUGCUGUGUGAAGCUGCGC | 0.142
AAGUCAGUGUCUAUGCUCUCAAGGACACACUGACAAGCAGACCAGCCCAGGGAGUCAUCACUACUCUGGAGAAUGUUAGCCCUCCAAGAAGGGCCCGUGUGACGGACGCUACAGAGACCA | 0.166
GUCACAACAACCUUGAAAGUAGUAGAAAAAGGAUUCAUCAACAUCUCCCCUGUGAAGAACACUACAGUAUUUGUAACCGAUGGAGAAAACGUAGAUUUGGUUGUUGAAUACGAGGCCUAC | 0.681
GUCAACAUUAAGAAACAAAUCAUAUUGUGUAUGGAAGAAUUAGAACACUCUCCAGAUACAAGCUUUGAAAGAGAUGUGGUGUGUGAAGAUGAAAGUGCUUUUUGUUUAUCACUGGAGAAC | 0.284

Block 2 — technique: RNA Bind-n-Seq; form: RNA; matrix: in vitro; tested at: 365 nM; reference: no-protein control; direction: higher = stronger binding
Target: RNA binding protein fox-1 homolog 2, RRM domain, GST-SBP tag (RBFOX2, Homo sapiens, UniProt O43251-10, residues 100-194)
Setting: natural RNA segment, single round, ends assumed
Shared flanks, not repeated: GGGAGUUCUACAGUCCGACGAUC … UGGAAUUCUCGGGUGCCAA
Residues (chain): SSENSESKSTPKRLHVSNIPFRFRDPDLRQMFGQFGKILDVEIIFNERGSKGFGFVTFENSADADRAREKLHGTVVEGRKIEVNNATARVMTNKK
Strand | RBNS enrichment (R)
GAGCAAUGCUACAUUGUUGUAAAAAGAAUUGCUAUUGUAAAAAAGCACUGUGUGACUUUGUGAAGGACACUGCCUUGGAAAUGUUGACUGACGUUUAUGCCUGGUGAUAG | 0.531
CGGUGUAUCCUGGCUUUAGGGGAACCAGGUUCAAGCAGGAAAGGGAUGGACACCAAGAGGUCUUCCCCCCACCCCCAGCUCCCCACCAAUCCCUAUGCUUUCUGAUGCAC | 0.436
GGGCUUGGUUGAGGGAACGGCUUCUGGCUGUAUGGCUGCAUGUGACAAGCCACGUCCCCUCCCACCUCUCCCCAAACCCCUGCAUCCCUGUAUUCACACGGGUCACUCUG | 8.48
GAUACUGGACAGAUGGAUUCUGGUGUGGGGAAAGCACAGAUACUGGACAGAUGGAUUCUAGUGUGACUUGUGACUGUGAGGUUUCCUAUAACAUAUUUAUAAAUGUUACU | 0.645
GCCUGGACUUGGCCCCUGCCACCUCCUGCCUCAGGUGUCCGCUAUCCACCAAAAGGGCUCCCUGAGGGUCUGGGCAAGGGACCUGCUUCUAUUAGCCCUUCUCCAUGGCC | 0.408
CUUGCGGUGAUAAAUCUUUUUAAAGGCAACUCAGUAUUUUUUAAAGGACAAAAUAAACUGACUGAAGGGUUCGCUACUUCCAGUCACAACCUGUGUAUAGAAGAAAGAAA | 0.422
UCCUAUUAAAUAAGAUUAUUUUAAGUUUUAGUGUCAACAUUGCAAUGCCAAUAGUAGGUGAGAGUGUAUUGCACAGAGUUGGAGAUAGUAAGGUGGUGACAUUUAACACA | 0.807
CAGGCAGCCUAGCCCAGCCCAGGGCACAUGGCAAGAGGGACUGGACCCACCUUUGGGUGAUGGGUGCCUUAGGUCCCCAGCAGCUGUACAGAAGGGGCUCUUCUCUCCAC | 0.234
AGUGGCCUCAGUAAAUGACAGAAAAACUGACAGGCUCAGUUUUGGAAGACAGCAAACUGGUAAGGUUCAUUCCUGGCUCGGUGCCAGGAACAUUUGUGUUUUGGAGCUCA | 0.286
GGUUUUGAAAACUUUUUUUUAUUUUGUCACAGACCUGUUGUCAUAGUUGAAAUGAUGUUUAUUGUAGAUGGUAUUUGAACUUAUUCUUCUGGAAAUAGUUCAUCAAGUAU | 0.874
CUAAGCCCCCACUACCCCAGAGCUAUCUUCUGUAGCCCAAAGGCAAGGCAGUGACCUCCUACUGACUUCCAACACAAUCCAGGGACAUUCUUCUCAACCCUUCAAACUUC | 0.322
AAAAACCCACAUGAUUUCAAGGAGUCUGGCAUUCCUGAAUCCUUCUUCCCUGCCAGGUGCCUGUCACCUGUCUUCACUGCCUCCUUUUCCCUGUCAUGCUCAUCAGCUUA | 0.632

Block 3 — technique: protein-binding microarray; form: double-stranded DNA, one strand shown; matrix: in vitro; tested at: 250 nM; setting: 60-bp whole probe; added: salmon DNA 0.4 mg/ml; reference: random background probes; direction: higher = stronger binding; shared flanks, not repeated: GCCTAGCAC … GTCTTGATTCGCTTGACGCTGCTG
Target: Interferon regulatory factor 7, full length, phosphomimetic (IRF7, Homo sapiens, UniProt Q92985, residues 1-503, S101K/S471D/S472D/S475D/S476D/S477D/S483D/S484D/S487D)
Sequence of UniProt Q92985 (whole entry, unmodified, looked up): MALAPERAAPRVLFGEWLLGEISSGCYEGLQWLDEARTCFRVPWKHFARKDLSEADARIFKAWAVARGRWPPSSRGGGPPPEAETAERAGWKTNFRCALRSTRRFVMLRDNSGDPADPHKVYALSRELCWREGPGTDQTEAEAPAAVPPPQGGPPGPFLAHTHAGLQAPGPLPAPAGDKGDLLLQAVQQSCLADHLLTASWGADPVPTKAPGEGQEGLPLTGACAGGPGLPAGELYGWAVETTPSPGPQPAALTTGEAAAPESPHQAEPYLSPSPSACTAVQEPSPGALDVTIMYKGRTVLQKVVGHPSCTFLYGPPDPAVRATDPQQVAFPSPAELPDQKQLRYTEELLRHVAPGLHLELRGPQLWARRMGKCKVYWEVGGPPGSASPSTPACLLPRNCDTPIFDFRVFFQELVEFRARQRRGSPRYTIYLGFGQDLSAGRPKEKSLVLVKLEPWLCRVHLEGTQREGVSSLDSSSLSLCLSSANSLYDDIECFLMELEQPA
Strand | log fluorescence
TCAATTGTGGCTTTTTAACTGTGCTAG | 0.105 z-score
TTAGGTATCGACTCTGGGTTAGTGCTA | 0.542 z-score
GACGGTATCGACGATCGGGACGTGCTA | -0.644 z-score
GACGGACTGGGTATCGGGAAGTGCTAG | -0.625 z-score
TTGGGACTGGGTTTCGGTTAGTGCTAG | 5.95 z-score
GACGGGCTGGGTCTCGGGACGTGCTAG | -1.07 z-score
TCATTTCCATTTTCTGAAACTGTGCTA | 3.89 z-score
GACGATTTCTGTATCGAGACGTGCTAG | 0.561 z-score
GACGGACTGGGTTCCGGGACGTGCTAG | 0.102 z-score
TCATTTTTCCGAGTGAGACTGTGCTAG | 1.33 z-score
TCATGTCTCTGGCCTGGGACTGTGCTA | 0.00477 z-score
GACGGTTTCGGTATCGAGACGTGCTAG | 10.3 z-score
TACTTTCTATGTCTGTTTTTGTGCTAG | 2.34 z-score
TATGTTCCCTATTTAAGGCAGTGCTAG | 4.94 z-score
GACGATATCAGTATCGCGACGTGCTAG | -0.159 z-score
GTAGGTATCGGACTGGGTTAGTGCTAG | -0.0623 z-score
TCATTTTTGCTTTCCTTACTGTGCTAG | 1.96 z-score
TTAGGTATCGGGTATCGGATAGTGCTA | 1.21 z-score
AACGAACTGAGTATCGAGACGTGCTAG | -0.031 z-score
TAAATTCTGAAAATGGAAACGTGCTAG | 0.232 z-score
AACGATTTCAGTCTCGAGACGTGCTAG | 0.913 z-score
CAGCCTTTGCCTCATCTTGCAGTGCTA | -0.177 z-score
TTAGATCTAAGTTTCGATTAGTGCTAG | 8.79 z-score
GAAGTTCTAAATATCTTTGTGTGCTAG | -0.314 z-score

Block 4 — technique: protein binding microarray; form: double-stranded DNA, one strand shown; matrix: in vitro; tested at: not given; reference: not given; direction: higher = stronger binding
Target: Histone acetyltransferase KAT6A, winged helix 2, GST fusion (KAT6A, Homo sapiens, UniProt Q92794, residues 85-181)
Setting: 8-mer, flanks averaged, mean of 2 arrays, mostly near background
Construct (chain): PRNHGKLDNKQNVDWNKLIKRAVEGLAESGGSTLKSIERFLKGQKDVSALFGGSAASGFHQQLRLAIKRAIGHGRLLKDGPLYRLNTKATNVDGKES
Strand | E-score
CACTGTGG | 0.0877
GGATAATA | 0.0596
GGTAGCAC | -0.0146
ATGGCTAC | -0.147
CCCCGTTA | -0.0574
GGTCCGGA | 0.15
TATCAATA | 0.114
GAAGCAAC | 0.164
CCCTCTGA | 0.207
ATTGTCCC | -0.177
CATTGCTC | -0.00629
GGCATCCC | 0.0182
AATTGTGT | -0.107
CAAAATAA | 0.0153
ATCTTCCA | 0.00654
AGAATCTA | -0.12
CACCCCTA | -0.287
ATCTCTGA | 0.0206
CCAAGGTC | 0.00515
AGCCGAAT | 0.0657
CAAACCAG | 0.0629
CCAACCTC | 0.14
GGATGGAC | -0.0803
ACTGCCCC | 0.0846
AGGTCCAA | -0.0655

For quick reference, copied from above (block 4):
Strand | E-score
CCCTCTGA | 0.207
GAAGCAAC | 0.164
GGTCCGGA | 0.15
ATCTCTGA | 0.0206
CACCCCTA | -0.287
ATTGTCCC | -0.177
